Values quoted from earlier work as cited in several papers.
± gives the spread as reported. In brackets after ≈: the same amount, converted by molar mass.
Chain of UniProt O00329 (whole entry, looked up): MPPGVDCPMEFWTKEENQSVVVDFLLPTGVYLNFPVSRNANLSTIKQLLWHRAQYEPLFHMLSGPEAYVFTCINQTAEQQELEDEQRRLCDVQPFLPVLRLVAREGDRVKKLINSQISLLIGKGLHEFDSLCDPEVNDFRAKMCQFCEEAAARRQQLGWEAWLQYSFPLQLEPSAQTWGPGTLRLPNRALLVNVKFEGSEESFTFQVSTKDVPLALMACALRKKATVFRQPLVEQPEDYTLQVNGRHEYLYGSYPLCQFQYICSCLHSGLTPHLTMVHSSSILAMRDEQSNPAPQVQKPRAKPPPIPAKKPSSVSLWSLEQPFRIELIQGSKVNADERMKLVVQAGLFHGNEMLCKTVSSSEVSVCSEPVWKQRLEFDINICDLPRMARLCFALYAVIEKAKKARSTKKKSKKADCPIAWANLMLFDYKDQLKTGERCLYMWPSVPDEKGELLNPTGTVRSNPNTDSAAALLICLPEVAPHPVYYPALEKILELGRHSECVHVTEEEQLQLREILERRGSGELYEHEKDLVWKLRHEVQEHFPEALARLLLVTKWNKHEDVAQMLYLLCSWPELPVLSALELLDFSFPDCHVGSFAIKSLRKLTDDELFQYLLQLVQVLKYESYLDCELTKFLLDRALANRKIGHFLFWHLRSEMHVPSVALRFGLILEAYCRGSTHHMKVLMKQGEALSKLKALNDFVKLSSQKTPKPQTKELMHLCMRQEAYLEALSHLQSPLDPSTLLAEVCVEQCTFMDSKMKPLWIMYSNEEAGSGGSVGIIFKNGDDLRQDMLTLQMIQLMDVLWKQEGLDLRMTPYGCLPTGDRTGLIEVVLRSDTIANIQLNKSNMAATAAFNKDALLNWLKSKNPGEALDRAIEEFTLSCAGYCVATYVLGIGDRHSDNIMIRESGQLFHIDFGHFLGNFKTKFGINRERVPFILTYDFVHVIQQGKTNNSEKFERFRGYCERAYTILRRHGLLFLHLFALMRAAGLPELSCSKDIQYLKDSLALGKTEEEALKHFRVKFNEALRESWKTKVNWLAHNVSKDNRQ
Chain of UniProt Q9UF33 (whole entry, looked up): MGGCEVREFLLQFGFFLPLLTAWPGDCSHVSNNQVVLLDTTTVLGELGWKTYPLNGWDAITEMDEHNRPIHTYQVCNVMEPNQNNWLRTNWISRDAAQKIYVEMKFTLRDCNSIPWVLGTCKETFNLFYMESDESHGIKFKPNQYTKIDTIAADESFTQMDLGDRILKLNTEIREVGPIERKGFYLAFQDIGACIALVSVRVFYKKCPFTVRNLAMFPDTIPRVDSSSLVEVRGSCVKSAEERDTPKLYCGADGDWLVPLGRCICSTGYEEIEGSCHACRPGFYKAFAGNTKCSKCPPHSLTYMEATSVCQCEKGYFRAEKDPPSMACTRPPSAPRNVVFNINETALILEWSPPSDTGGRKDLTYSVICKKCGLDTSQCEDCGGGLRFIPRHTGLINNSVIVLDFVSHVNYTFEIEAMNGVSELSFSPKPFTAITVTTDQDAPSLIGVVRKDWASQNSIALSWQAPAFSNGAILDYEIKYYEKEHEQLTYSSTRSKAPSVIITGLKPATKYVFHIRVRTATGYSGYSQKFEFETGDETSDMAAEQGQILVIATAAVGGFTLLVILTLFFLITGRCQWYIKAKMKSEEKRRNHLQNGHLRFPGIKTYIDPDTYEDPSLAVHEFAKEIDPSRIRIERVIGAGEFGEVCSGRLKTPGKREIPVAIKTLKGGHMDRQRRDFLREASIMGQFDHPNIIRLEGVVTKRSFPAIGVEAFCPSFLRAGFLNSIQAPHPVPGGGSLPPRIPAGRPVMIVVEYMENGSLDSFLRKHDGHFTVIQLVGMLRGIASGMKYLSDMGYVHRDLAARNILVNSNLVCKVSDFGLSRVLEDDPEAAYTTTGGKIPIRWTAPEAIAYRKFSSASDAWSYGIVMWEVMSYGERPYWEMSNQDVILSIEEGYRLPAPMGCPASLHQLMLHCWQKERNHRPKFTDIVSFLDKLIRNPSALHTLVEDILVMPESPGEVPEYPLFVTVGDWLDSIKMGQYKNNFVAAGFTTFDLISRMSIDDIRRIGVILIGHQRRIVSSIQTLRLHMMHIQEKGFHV

| SMILES | tested on | test | system | setting | how to read | measurement | value |
| --- | --- | --- | --- | --- | --- | --- | --- |
| Nc1cccc2c1C(=O)N(C1CCC(=O)NC1=O)C2=O (centres unmarked) |  |  | relapsed refractory multiple myeloma patients | dose not given, independent adjudication |  | progression-free survival | 2.5 months |
| C[C@H]1COCCN1c1nc(-c2cnc(N)cc2C(F)F)nc(N2CCOCC2)n1 | KU812 |  |  |  |  | GI50 | 390 nM |
| C[C@@]12C[C@@]3(O)O[C@@H](O1)[C@]1(COC(=O)c4ccccc4)[C@H]3C[C@@]12O[C@@H]1O[C@H](CO)[C@@H](O)[C@H](O)[C@H]1O |  | antithrombotic effect | rat thrombosis model | intravenous |  | effective dose | 10 mg/kg |
| Cc1c(C#N)cccc1[C@@H](C)Nc1nnc(C)c2cnc(N3CCOCC3)cc12 | NCI-H1435 | 3D cell viability |  | 14 d |  | IC50 | > 1000 nM |
| COC(=O)C1=C(C)NC(C)=C(C(=O)OC)C1c1c(-c2cccc(C(F)(F)F)c2)nc2sccn12 |  | calcium-induced contraction | guinea pig aortic strip | 50 µM, added: K+ 80 mM depolarisation |  | inhibition | 27 ± 1.3% |
| CN1CC[C@H](c2c(O)cc(O)c3c(=O)cc(-c4ccccc4Cl)oc23)[C@H](O)C1 |  |  | patients with AML, CLL or non-Hodgkin lymphoma | dose not given |  | partial response rate | 14% |
| C=C1[C@H](CO)[C@@H](O)C[C@@H]1n1cnc2c(=O)[nH]c(N)nc21 |  |  | chronic hepatitis B patients | dose not given, 12 months, added: lamivudine | reference: baseline | HBsAg reduction | 0.08 log10 IU/mL |
| Cc1ccc(Nc2nccc(N(C)c3ccc4c(C)n(C)nc4c3)n2)cc1S(N)(=O)=O |  |  | post-chemotherapy soft tissue sarcoma | dose not given |  | progression-free survival | 4.6 months |
| CCCCCC1OC1CC=CCC=CCC=CCCCC(=O)O (centres unmarked) |  |  | mouse, Langendorff heart, constant flow | dose not given |  | cardiac effect | no effect |
| CCc1cnn2c(NCc3ccc[n+]([O-])c3)cc(N3CCCC[C@H]3CCO)nc12 |  |  | patients with CLL | dose not given |  | partial remission rate | 25 to 40% |
| CC(=O)O[C@@]12CO[C@@H]1C[C@H](O)[C@@]1(C)C(=O)[C@H](O)C3=C(C)[C@@H](OC(=O)[C@H](O)[C@@H](NC(=O)OC(C)(C)C)c4ccccc4)C[C@@](O)([C@@H](OC(=O)c4ccccc4)[C@H]21)C3(C)C |  |  | human, advanced NSCLC, after chemotherapy and checkpoint inhibitor | dose not given |  | radiographic response rate | < 15% |
| CC1(C)S[C@@H]2[C@H](NC(=O)[C@H](N)c3ccccc3)C(=O)N2[C@H]1C(=O)O | Klebsiella pneumoniae |  | clinical isolate RKI-No_908/15 |  |  | MIC | > 16 µg/mL |
| CCc1cc2c(cc1CC)CC(NC[C@H](O)c1ccc(O)c3[nH]c(=O)ccc13)C2 |  |  | COPD patients | inhaled, 300 µg once daily, 24 h postdose, dosing day 182 | reference: baseline | placebo-corrected trough FEV1 change | 180 mL |
| CCNCCc1ccc(CN(CC)c2cc(OC)ccc2[C@@H]2CCc3cc(O)ccc3C2)cc1 |  | local investigator assessed | human, ER-positive HER2-negative breast cancer | dose not given |  | median progression-free survival | 2.17 months |
| COC[C@@H](c1ccc(C(F)(F)F)cc1)N1CCN(C2(C)CCN(C(=O)c3c(C)ncnc3C)CC2)C[C@@H]1C |  |  | treatment-naive HIV subjects | 25 mg once daily, day 14, monotherapy without ritonavir |  | HIV RNA reduction | 0.93 log10 copies/mL |
| C=C1C[C@@H]2[C@H](CC[C@]3(C)C(=O)CC[C@@H]23)[C@@]2(C)C=CC(=O)C=C12 |  |  | human | dose not given, long-term use annual rate |  | invasive breast cancer incidence reduction | 65% |
| C=CC(=O)N1CCC(C(=O)NCC(=O)N2CCN(c3nc(-c4cnc(N)nc4C(F)F)nc(N4CCOCC4)n3)CC2)CC1 | Phosphatidylinositol 4,5-bisphosphate 3-kinase catalytic subunit delta isoform (PIK3CD, Homo sapiens, UniProt O00329) | kinase activity |  | 1 µM |  | remaining activity | 19% |
| CCc1ncc(C)nc1CC |  |  | human, water |  |  | odour detection threshold | 0.031 µg/kg |
| CNC(=O)c1ccc(Nc2ncc(C(F)(F)F)c(NCc3nccnc3N(C)S(C)(=O)=O)n2)cc1 |  |  | patients with KRAS mutant NSCLC | dose not given, 12 weeks | reference: patients | patients meeting progression-free survival endpoint | 28% |
| Cc1nccnc1C |  |  | human, water |  |  | odour detection threshold | 2500 µg/kg |
| C[N+]1(C)CCC(OC(=O)C(O)(c2ccccc2)C2CCCC2)C1 (centres unmarked) |  |  | COPD patients | inhaled, 50 µg once daily, 24 h postdose, dosing day 182 | reference: baseline | placebo-corrected trough FEV1 change | 113 mL |
| OC[C@H]1O[C@H](O[C@]2(CCl)O[C@H](CCl)[C@@H](O)[C@@H]2O)[C@H](O)[C@@H](O)[C@H]1Cl |  | sensory evaluation | human sensory panel, water |  | reference: sucrose 5 % w/v | relative sweetness | 6 |
| Cc1cc(-c2nccc3c2ccn3CC(=O)Nc2ccc(-c3cnccn3)cn2)ccn1 |  |  | mouse, hepatic fibrosis model | 5 mg/kg once daily, days 14-32 |  | hepatic hydroxyproline content | decreased |
| Cc1ccccc1C(=O)Nc1ccc(C(=O)N2CCCC(O)c3cc(Cl)ccc32)c(C)c1 (centres unmarked) |  |  | RC/RC mouse | dose not given, long-term treatment from 6 months |  | decrease in kidney weight/body weight ratio | ~10% |
| Nc1cc(C(F)(F)F)c(-c2nc(N3CCOCC3)nc(N3CCOCC3)n2)cn1 | Ephrin type-A receptor 6 (EPHA6, Homo sapiens, UniProt Q9UF33) | enzyme activity |  | 10 µM | reference: untreated | remaining activity | 89% |
| CNC(C)C1CCC(N)C(OC2C(N)CC(N)C(OC3OCC(C)(O)C(NC)C3O)C2O)O1 (centres unmarked) | Klebsiella pneumoniae |  | clinical isolate RKI-No_544/13 |  |  | MIC | 4 µg/mL (≈ 8.38 µM) |
